Assay results of several laboratories.
Every numbered part comes from another study and shows a few of its results, in no order.

Series 1 — method: universal PBM; molecule type: double-stranded DNA, one strand shown; sample: in vitro; tested at: 600 nM; direction: higher = stronger binding; quantity: E-score
Target: Sal-like protein 4, full length isoform A (SALL4, Homo sapiens, UniProt Q9UJQ4, residues 1-1053)
Sequence of UniProt Q9UJQ4 (whole entry, looked up): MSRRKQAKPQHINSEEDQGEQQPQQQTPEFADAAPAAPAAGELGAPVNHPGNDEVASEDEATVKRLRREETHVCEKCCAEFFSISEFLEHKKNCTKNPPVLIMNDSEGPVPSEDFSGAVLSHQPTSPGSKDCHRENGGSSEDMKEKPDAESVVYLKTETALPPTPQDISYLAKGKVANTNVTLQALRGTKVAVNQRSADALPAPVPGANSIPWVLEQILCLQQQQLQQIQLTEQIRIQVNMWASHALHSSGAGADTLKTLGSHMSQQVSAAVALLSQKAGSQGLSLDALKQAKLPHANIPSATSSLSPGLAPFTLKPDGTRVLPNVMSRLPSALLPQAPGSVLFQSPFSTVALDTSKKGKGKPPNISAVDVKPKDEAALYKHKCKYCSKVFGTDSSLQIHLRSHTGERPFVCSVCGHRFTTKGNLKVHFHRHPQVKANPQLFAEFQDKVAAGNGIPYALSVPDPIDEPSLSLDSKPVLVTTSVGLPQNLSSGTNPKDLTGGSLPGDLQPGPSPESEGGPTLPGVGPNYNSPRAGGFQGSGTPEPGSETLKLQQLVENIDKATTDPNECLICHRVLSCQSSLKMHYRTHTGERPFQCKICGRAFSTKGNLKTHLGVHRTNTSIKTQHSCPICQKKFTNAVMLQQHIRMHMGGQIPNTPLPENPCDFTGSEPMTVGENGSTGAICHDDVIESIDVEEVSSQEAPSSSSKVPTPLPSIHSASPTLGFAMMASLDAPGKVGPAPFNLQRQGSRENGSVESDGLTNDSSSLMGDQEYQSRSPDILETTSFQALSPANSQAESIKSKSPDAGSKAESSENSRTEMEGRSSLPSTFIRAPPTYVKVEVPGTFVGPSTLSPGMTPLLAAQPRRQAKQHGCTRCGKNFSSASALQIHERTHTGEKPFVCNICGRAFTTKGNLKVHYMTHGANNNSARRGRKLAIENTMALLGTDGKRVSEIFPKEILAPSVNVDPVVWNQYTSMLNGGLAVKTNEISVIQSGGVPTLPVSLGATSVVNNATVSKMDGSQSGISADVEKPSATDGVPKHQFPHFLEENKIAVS
Setting: 8-mer, flanks averaged, mean of replicates
ACTATAGA: 0.253
GTGGTGGA: -0.0828
ACAGACAG: 0.00782
CGGCCGAA: -0.194
CTAGTGTA: 0.0864
CGACATAC: -0.0607
CAGGGCCC: -0.403
AACTGATC: -0.115

Series 2 — method: RNA Bind-n-Seq; molecule type: RNA; sample: in vitro; tested at: 365 nM; reference: no-protein control; direction: higher = stronger binding; quantity: RBNS enrichment (R)
Target: RNA binding protein fox-1 homolog 2, RRM domain, GST-SBP tag (RBFOX2, Homo sapiens, UniProt O43251-10, residues 100-194)
Setting: natural RNA segment, single round, ends assumed
Construct (chain): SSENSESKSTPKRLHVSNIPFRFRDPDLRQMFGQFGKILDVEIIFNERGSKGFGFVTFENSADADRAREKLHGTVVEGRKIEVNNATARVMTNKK
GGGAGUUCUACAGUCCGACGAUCAAUGUCAGUGACAUUUUUUUAUUUUUGAAGUACUUUGACACUCCCAGCCUCUACUUUAUUAGAAUUGGAAGACGAAUUUUUCUUCAAAAGCCUUCUACAGACAAAUACUUUGGAAUUCUCGGGUGCCAA: 0.599
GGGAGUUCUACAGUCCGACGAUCGAAACGGCACGACCCCUUCUCAAGCUGGCUCACUCAGACACAUUGGGACAAACCCUGGACAGCCAUGCCAGAGAGAGGCCUUUGACCGGCCCCAGAGCUAAAAGCACCAGUGGAAUUCUCGGGUGCCAA: 0.448
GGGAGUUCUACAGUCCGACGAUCAUUUGUAACUGGCAGACUCUGGUUCCAUUGUAUUUGUUUCAAAAUGUGUUUUUGUUUGUUUGUUUGUUUCAGGAGCAAUCGGUUACAUGGGAACAAGUGCCUUUGUUCGAUGGAAUUCUCGGGUGCCAA: 2.26
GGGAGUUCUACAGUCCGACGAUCGAGAAAUGGCUUCCGGAUGAGAUGGACCUGACUGGGGAAACACCUUUGAGCUUGUAACCUAGCAGCUGGGGCCAGUGAGAGGUGACUCAGACACUCCUGCCUCAGUUUCUUGGAAUUCUCGGGUGCCAA: 0.998
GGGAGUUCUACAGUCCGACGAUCAGGCAAGAGUACAGUAAGCCUAAGGGGACUUGCUGCUCAAACCAAAAAUUAACUCUGAAGGUCAGUCUACCUGACAUUACCUAGGCAUGGUGUUGUCCAAGCUGCGCAUCUGGAAUUCUCGGGUGCCAA: 2.03
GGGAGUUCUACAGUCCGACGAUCAUUAUGUAAGAAUCUUGCACAGCACUGCUAAUGUAAAUUUCAGUUGUUUUUCCCUCUAGGACAAACACUUACCAAAAUAUGCAACUUUUUUUUGGUGGGAAGAGAGAUUGUGGAAUUCUCGGGUGCCAA: 1.69
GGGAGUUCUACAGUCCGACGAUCAAAGGUAAAUAACCUAGGUUCAGCUUUUGCUUAAACAUUAAAUAUCUUUUCCAUUUUUUAAUGUUUGUAAGCUAGAUAUGCCAGCUUUGUUUCUACAUUGCAACCAAAAAUGGAAUUCUCGGGUGCCAA: 0.554
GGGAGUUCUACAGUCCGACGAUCUCUGAGAUGUUCGGACUUUUAAAUUCAUGUAAAUAUCUCCUCUUCUGCUGUGUGUACAUAGGACUACAUAGUCUAUCCUAGAGAUAAAUAAACAACCAUAUUUACCAUGUUGGAAUUCUCGGGUGCCAA: 0.285

Series 3 — method: protein binding microarray; molecule type: double-stranded DNA, one strand shown; sample: in vitro; tested at: not given; reference: not given; direction: higher = stronger binding; quantity: E-score
Target: Histone acetyltransferase KAT6A, both winged helices, GST fusion (KAT6A, Homo sapiens, UniProt Q92794, residues 1-181)
Setting: 8-mer, flanks averaged, mean of 2 arrays, mostly near background
Construct (chain): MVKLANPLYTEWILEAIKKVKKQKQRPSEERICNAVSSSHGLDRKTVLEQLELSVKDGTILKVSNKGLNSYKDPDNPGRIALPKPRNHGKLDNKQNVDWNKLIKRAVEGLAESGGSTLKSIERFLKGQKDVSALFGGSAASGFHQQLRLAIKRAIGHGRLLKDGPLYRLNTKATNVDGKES
GAGGCTAA: -0.146
CTCTCAAG: -0.238
AACCTAAG: -0.0981
CATAAAGG: -0.133
CCCGTCAC: 0.222
ACTCGGAG: -0.101
CGACTCCA: -0.0188
CAATGGTC: -0.165
CCCAAGCG: 0.0404
ATACCGTG: 0.198

Other studies, line by line
PhoQ, residues 284 288 289 292 302 303 SSCCRF
fold induction (PhoP, residues 12 14 15 18 19 NQFFI (Escherichia coli, UniProt P23836); Sort-seq, measured: YFP reporter; E. coli; PhoQ-PhoP variant library, with: 10 µM Mg2+; reference: high Mg2+ state, higher = stronger signaling): 16.7

For quick reference, copied from above (series 2):
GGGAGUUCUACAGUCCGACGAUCAUUUGUAACUGGCAGACUCUGGUUCCAUUGUAUUUGUUUCAAAAUGUGUUUUUGUUUGUUUGUUUGUUUCAGGAGCAAUCGGUUACAUGGGAACAAGUGCCUUUGUUCGAUGGAAUUCUCGGGUGCCAA: 2.26
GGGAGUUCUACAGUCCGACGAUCAUUAUGUAAGAAUCUUGCACAGCACUGCUAAUGUAAAUUUCAGUUGUUUUUCCCUCUAGGACAAACACUUACCAAAAUAUGCAACUUUUUUUUGGUGGGAAGAGAGAUUGUGGAAUUCUCGGGUGCCAA: 1.69
